# Published values collected from several papers.
# Protocols differ between the studies behind these lines. Several values in a cell are separate wells, animals, samples, runs or records. Numbers after ± are the reported error.
# GLP1R: Glucagon-like peptide 1 receptor (GLP1R, Homo sapiens, UniProt P43220)
# Sequence of UniProt P11388 (whole entry, looked up): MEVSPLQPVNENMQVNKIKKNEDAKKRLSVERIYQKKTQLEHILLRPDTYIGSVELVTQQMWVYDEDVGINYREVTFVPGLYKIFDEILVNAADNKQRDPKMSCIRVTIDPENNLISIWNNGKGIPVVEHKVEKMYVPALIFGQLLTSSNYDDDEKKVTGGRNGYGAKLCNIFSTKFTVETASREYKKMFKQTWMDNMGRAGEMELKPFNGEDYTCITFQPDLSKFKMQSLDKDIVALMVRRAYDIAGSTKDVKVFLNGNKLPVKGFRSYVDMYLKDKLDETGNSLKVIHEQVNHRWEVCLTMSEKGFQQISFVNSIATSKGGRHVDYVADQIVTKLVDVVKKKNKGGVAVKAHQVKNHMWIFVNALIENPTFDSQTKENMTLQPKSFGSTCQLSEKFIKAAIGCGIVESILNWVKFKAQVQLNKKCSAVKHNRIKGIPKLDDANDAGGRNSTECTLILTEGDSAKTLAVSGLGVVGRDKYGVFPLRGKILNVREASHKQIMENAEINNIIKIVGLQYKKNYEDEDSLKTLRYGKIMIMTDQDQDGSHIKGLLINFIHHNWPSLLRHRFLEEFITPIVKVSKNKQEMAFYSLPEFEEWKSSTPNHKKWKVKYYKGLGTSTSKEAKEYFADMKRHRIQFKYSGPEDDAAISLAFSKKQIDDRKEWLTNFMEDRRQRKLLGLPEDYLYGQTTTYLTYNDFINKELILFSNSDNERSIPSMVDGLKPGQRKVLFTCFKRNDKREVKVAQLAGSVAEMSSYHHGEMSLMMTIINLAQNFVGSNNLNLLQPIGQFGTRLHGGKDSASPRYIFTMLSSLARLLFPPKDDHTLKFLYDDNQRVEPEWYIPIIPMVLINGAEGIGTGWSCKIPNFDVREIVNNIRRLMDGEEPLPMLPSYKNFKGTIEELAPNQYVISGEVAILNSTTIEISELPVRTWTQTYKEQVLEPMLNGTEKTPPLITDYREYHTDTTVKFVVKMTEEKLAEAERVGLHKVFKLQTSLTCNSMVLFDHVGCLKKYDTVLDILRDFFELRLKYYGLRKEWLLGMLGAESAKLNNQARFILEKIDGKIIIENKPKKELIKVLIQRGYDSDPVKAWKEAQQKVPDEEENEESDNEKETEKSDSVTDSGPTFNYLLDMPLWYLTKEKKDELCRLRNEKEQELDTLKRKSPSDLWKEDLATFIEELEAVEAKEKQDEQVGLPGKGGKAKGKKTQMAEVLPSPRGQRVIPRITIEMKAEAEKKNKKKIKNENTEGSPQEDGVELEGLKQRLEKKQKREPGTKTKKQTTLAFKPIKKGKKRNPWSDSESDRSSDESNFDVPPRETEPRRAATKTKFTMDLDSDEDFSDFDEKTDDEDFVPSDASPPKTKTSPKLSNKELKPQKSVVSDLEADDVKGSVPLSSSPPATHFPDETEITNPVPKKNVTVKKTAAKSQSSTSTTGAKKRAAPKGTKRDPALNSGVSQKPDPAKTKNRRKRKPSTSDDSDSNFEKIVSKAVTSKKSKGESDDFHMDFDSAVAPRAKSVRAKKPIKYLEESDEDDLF
# Sequence of UniProt P51575 (whole entry, unmodified, looked up): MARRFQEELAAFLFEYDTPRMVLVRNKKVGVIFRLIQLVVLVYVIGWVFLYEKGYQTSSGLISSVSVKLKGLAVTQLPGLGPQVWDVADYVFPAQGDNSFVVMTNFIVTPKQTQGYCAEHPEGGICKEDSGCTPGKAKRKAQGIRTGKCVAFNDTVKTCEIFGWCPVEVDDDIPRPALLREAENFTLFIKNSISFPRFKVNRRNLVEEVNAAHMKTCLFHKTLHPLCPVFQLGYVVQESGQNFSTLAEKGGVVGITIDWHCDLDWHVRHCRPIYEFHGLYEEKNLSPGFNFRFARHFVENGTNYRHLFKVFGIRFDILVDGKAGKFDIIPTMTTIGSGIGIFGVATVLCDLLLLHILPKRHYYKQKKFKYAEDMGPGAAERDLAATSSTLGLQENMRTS
# Sequence of UniProt Q16774 (whole entry, unmodified, looked up): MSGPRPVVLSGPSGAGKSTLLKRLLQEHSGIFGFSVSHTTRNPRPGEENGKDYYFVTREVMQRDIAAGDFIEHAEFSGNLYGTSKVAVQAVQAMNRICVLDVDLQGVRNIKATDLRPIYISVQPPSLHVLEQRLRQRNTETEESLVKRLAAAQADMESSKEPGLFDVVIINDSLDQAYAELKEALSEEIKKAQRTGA
# Sequence of UniProt Q9NQ84 (whole entry, looked up): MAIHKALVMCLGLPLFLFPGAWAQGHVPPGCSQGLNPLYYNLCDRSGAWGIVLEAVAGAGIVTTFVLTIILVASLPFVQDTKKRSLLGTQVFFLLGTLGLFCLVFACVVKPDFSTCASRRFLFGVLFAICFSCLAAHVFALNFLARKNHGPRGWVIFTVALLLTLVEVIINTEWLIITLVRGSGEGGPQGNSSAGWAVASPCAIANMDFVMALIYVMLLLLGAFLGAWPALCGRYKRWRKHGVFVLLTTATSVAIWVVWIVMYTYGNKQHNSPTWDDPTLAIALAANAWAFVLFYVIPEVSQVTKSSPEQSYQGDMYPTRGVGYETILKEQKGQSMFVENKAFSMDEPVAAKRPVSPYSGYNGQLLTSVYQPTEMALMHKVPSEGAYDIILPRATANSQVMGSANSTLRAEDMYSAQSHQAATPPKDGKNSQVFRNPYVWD
# Sequence of UniProt Q9NRP7 (whole entry, looked up): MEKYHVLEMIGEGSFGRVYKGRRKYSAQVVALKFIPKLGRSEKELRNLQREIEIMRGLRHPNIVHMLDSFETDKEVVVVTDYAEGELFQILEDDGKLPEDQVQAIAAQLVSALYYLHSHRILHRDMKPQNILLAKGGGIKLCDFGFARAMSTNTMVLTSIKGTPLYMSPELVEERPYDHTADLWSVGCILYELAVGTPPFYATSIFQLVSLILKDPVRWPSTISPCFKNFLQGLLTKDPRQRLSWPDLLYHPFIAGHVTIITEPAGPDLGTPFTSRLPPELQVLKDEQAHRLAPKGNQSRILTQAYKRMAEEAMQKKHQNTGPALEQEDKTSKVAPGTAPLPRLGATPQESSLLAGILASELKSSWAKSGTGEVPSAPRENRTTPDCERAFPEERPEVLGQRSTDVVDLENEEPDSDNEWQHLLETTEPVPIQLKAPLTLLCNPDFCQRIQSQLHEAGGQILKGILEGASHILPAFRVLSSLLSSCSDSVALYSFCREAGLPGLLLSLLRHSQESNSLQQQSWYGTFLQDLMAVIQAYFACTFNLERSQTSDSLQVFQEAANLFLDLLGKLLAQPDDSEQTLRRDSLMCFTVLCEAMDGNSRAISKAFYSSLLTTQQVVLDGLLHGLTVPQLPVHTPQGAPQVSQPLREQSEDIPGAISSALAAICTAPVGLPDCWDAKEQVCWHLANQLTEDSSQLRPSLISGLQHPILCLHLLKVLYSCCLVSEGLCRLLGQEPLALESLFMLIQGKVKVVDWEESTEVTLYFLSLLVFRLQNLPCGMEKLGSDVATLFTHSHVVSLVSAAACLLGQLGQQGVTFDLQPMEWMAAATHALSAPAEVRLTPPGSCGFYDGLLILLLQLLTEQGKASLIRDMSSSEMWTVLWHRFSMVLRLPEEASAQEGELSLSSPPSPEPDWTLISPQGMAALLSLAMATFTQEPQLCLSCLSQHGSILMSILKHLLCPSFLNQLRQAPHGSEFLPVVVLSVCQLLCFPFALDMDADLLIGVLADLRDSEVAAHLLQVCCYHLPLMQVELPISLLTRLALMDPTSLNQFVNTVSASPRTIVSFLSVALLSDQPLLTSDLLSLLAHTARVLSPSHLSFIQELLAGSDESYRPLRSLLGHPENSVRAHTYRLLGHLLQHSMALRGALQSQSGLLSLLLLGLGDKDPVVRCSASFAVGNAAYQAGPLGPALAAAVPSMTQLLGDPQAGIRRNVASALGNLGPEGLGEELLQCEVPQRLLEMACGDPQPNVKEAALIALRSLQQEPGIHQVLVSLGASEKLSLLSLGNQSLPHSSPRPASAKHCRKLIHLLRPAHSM
# Sequence of UniProt Q92800 (whole entry, looked up): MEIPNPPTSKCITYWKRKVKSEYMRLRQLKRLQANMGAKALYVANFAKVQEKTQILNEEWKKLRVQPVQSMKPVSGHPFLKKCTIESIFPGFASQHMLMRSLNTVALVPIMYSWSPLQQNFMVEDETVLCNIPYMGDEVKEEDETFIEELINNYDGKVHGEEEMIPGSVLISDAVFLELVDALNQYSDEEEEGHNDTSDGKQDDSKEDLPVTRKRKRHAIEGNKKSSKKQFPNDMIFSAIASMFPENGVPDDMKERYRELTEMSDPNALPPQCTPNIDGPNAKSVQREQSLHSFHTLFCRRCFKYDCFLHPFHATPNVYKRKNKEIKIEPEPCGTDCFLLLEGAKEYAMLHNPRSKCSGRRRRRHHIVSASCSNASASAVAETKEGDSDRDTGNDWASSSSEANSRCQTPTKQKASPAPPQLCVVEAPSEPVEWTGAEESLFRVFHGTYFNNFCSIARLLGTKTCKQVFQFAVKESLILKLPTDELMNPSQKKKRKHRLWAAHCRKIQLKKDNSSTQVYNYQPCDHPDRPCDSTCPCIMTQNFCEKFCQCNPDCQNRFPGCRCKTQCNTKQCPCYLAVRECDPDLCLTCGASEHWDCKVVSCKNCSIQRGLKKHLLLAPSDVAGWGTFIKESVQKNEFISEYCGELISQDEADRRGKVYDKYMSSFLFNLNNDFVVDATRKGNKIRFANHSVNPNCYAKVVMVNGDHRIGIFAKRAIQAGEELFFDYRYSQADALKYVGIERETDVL
# Sequence of UniProt P03146 (1-149, looked up): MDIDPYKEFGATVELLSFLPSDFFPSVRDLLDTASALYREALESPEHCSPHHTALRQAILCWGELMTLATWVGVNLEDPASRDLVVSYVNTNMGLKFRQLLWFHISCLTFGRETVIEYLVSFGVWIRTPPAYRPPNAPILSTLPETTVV
SMILES,target or system,test,test system,conditions,scale,measurement,result
CC[C@H](C)[C@H](NC(=O)[C@H](Cc1ccccc1)NC(=O)[C@H](CCC(=O)O)NC(=O)[C@H](CCCNC(=N)N)NC(=O)[C@H](C)NC(=O)[C@H](C)NC(=O)[C@H](CCC(N)=O)NC(=O)[C@H](CCC(=O)O)NC(=O)[C@H](CCC(=O)O)NC(=O)[C@H](CC(C)C)NC(=O)[C@H](Cc1ccc(O)cc1)NC(=O)[C@H](CO)NC(=O)[C@H](CO)NC(=O)[C@H](CCCCNc1c(NCCCCCN(O)C(=O)CCC(=O)NCCCCCN(O)C(=O)CCC(=O)NCCCCCN(O)C(C)=O)c(=O)c1=O)NC(=O)[C@H](CC(=O)O)NC(=O)[C@H](CO)NC(=O)[C@@H](NC(=O)[C@H](Cc1ccccc1)NC(=O)[C@@H](NC(=O)CNC(=O)[C@H](CCC(=O)O)NC(=O)[C@H](C)NC(=O)CCc1cnc[nH]1)[C@@H](C)O)[C@@H](C)O)C(=O)N[C@@H](C)C(=O)N[C@@H](Cc1c[nH]c2ccccc12)C(=O)N[C@@H](CC(C)C)C(=O)N[C@H](C(=O)N[C@@H](CCCCNc1c(NCCCCCN(O)C(=O)CCC(=O)NCCCCCN(O)C(=O)CCC(=O)NCCCCCN(O)C(C)=O)c(=O)c1=O)C(=O)NCC(=O)N[C@@H](CCCNC(=N)N)C(=O)N[C@@H](CCCCNC(=O)COCCOCCNC(=O)COCCOCCNC(=O)CC[C@H](NC(=O)CCCCCCCCCCCCCCCCC(=O)O)C(=O)O)C(=O)O)C(C)C,GLP1R,"agonist, CRE luciferase reporter",BHK cells,"metal-free DFO conjugate, with: 0% HSA",relative to: parent peptide,fold potency loss,63.2
Nc1nc2c(ncn2[C@@H]2O[C@H](COP(=O)(O)O)[C@@H](O)[C@H]2O)c(=O)[nH]1,"GUK1 (Homo sapiens, UniProt Q16774, Y53A)","enzyme activity, NADH-coupled",,,,kcat,12.7 s⁻¹
CC1CCCN(C(=O)c2cc3ncccn3n2)C1 (stereo not drawn),"Transcription intermediary factor 1-alpha, PHD-bromodomain (TRIM24, Homo sapiens, UniProt O15164)","binding, affinity selection mass spectrometry",,,relative to: other proteins in batch,log fold enrichment,-0.0206
Nc1ncnc2c1ncn2[C@@H]1O[C@H](COP(=O)(O)CP(=O)(O)OP(=O)(O)O)[C@@H](O)[C@H]1O,"P2X purinoceptor 1 (P2RX1, Homo sapiens, UniProt P51575, K136A)",calcium influx,,10 µM,relative to: ionomycin response,calcium influx,94.8% and 100%
O=C(O)c1ccc(Nc2ncc3c(n2)-c2ccc(Cl)cc2C(c2c(F)cccc2F)=NC3)cc1,EphA5(h),kinase activity,,1 µM,,remaining activity,80%
Cn1cc(-c2ccc(-c3cncc(Cl)c3N3CCC4(CCNC4=O)CC3)cc2)cn1,COLO 205,"gene expression, microarray, item: PCK1 mRNA",,"concentration not given, 2 h",relative to: untreated cells,log2 fold change,-2.28
O=c1nc(SCc2cc(F)cc(C(F)(F)F)c2)nc(SCc2ccc3sccc3c2)[nH]1,"DNA topoisomerase 2-alpha (TOP2A, Homo sapiens, UniProt P11388)",ATPase activity,,"7.8 µM, with: ATP 0.5 mM",,ATP hydrolysis rate,1.11 µM/min and 1.56 µM/min
Cc1ncsc1-c1ccc(CNC(=O)[C@@H]2C[C@H](O)CN2C(=O)[C@@H](NC(=O)C2(F)CC2)C(C)(C)C)c(OCCc2ccc(CN3CCN(c4cc(-c5ccccc5O)nnc4N)CC3)cc2)c1,"SWI/SNF-related matrix-associated actin-dependent regulator of chromatin subfamily A member 4, bromodomain (SMARCA4, Homo sapiens, UniProt P51532)","ternary complex binding, TR-FRET competition",,with: VCB complex,,cooperativity factor alpha,0.8
C=CCNC1=C2C[C@@H](C)C[C@H](OC)[C@H](O)[C@@H](C)/C=C(\C)[C@H](OC(N)=O)[C@@H](OC)/C=C\C=C(/C)C(=O)NC(=CC1=O)C2=O,NanoBiT HiBiT/LgBiT luciferase,"inhibitor, HiBiT luminescence counterscreen",conditioned medium only,"1.66 µM, 24 h",relative to: vehicle,luminescence signal reduction,-0.3%
CCCCCCCCCCCC(=O)O,"Peroxisome proliferator-activated receptor alpha (Ppara, Mus musculus, UniProt P23204, F272I)",intrinsic fluorescence quenching,,concentration not given,,binding,no binding
CCCCN1/C(=C/C=C/c2sc3ccc(Br)cc3[n+]2CCCC)Sc2ccc(Br)cc21.[I-],"Histone-arginine methyltransferase CARM1 (CARM1, Homo sapiens, UniProt Q86X55)","inhibitor, filter binding",,with: histone H3.3 substrate,,Hill coefficient,1.32
CCN1CCC[C@H]1CNC(=O)c1c(O)c(Cl)cc(Cl)c1OC,"GPRC5C (Homo sapiens, UniProt Q9NQ84)","β-arrestin recruitment, TANGO luminescence",,concentration not given,relative to: basal luminescence,log2 fold change,0.303
O=C(Nc1cc(F)c(F)c(F)c1)c1ccc(F)c(S(=O)(=O)NCc2cccc(B(O)O)c2)c1,"Capsid protein, residues 1-149 (C, Hepatitis B virus genotype D subtype ayw, UniProt P03146)","capsid assembly, size exclusion chromatography",,"10 µM, overnight, with: 5 µM Cp149, 150 mM NaCl",,capsid to dimer ratio,0.36
CC[C@@H]1[C@H](F)C(=O)N[C@@H]1COc1nccc2cc(C(N)=O)c(OC)cc12,"Calcium/calmodulin-dependent protein kinase type 1 (CAMK1, Homo sapiens, UniProt Q14012)","ATP probe binding, KiNativ profiling, item: Lys1 probe site",THP-1 cell lysate,0.2 mM,,inhibition,1.9%
Cc1cc(-c2ccnc3[nH]cc(F)c23)cc(F)c1[C@@]1(O)[C@H](C)CN(C(=O)CN)C[C@@H]1C,"RAC-alpha serine/threonine-protein kinase (AKT1, Homo sapiens, UniProt P31749)","ATP/ADP probe binding, KiNativ",HEK293T lysate,"1 µM, ATP loop peptide",,probe labelling inhibition,-3.9%
CC[C@H](C)[C@H](NC(=O)[C@H](Cc1ccccc1)NC(=O)[C@H](CCC(=O)O)NC(=O)[C@H](CCCNC(=N)N)NC(=O)[C@H](C)NC(=O)[C@H](C)NC(=O)[C@H](CCC(N)=O)NC(=O)[C@H](CCC(=O)O)NC(=O)[C@H](CCC(=O)O)NC(=O)[C@H](CC(C)C)NC(=O)[C@H](Cc1ccc(O)cc1)NC(=O)[C@H](CO)NC(=O)[C@H](CO)NC(=O)[C@H](CCCCNc1c(NCCCCCN(O)C(=O)CCC(=O)NCCCCCN(O)C(=O)CCC(=O)NCCCCCN(O)C(C)=O)c(=O)c1=O)NC(=O)[C@H](CC(=O)O)NC(=O)[C@H](CO)NC(=O)[C@@H](NC(=O)[C@H](Cc1ccccc1)NC(=O)[C@@H](NC(=O)CNC(=O)[C@H](CCC(=O)O)NC(=O)[C@H](C)NC(=O)CCc1cnc[nH]1)[C@@H](C)O)[C@@H](C)O)C(=O)N[C@@H](C)C(=O)N[C@@H](Cc1c[nH]c2ccccc12)C(=O)N[C@@H](CC(C)C)C(=O)N[C@H](C(=O)N[C@@H](CCCNC(=N)N)C(=O)NCC(=O)N[C@@H](CCCNC(=N)N)C(=O)N[C@@H](CCCCNC(=O)COCCOCCNC(=O)COCCOCCNC(=O)CC[C@H](NC(=O)CCCCCCCCCCCCCCCCC(=O)O)C(=O)O)C(=O)NCC(=O)NCC(=O)N[C@@H](CO)C(=O)N[C@@H](CCCCNc1c(NCCCCCN(O)C(=O)CCC(=O)NCCCCCN(O)C(=O)CCC(=O)NCCCCCN(O)C(C)=O)c(=O)c1=O)C(=O)O)C(C)C,GLP1R,"agonist, CRE luciferase reporter",BHK cells,"Zr-loaded DFO conjugate, with: 1% HSA",relative to: parent peptide,fold potency loss,6.4
C=CC(=O)N1CCC(COCC(=O)N2CCN(c3nc(-c4cnc(N)nc4C(F)F)nc(N4CCOC[C@@H]4C)n3)CC2)CC1,"Serine/threonine-protein kinase 36 (STK36, Homo sapiens, UniProt Q9NRP7)",KINOMEscan,,1 µM,,remaining binding,98%
CCCc1cc(C)[nH]c(=O)c1CNC(=O)c1cc(-c2ccc(N3CCN(C(C)C)CC3)nc2)cc2c1cnn2C(C)C,"Histone-lysine N-methyltransferase EZH1 (EZH1, Homo sapiens, UniProt Q92800)",inhibitor,,,relative to: EZH1 IC50 over EZH2 IC50,selectivity ratio,~10 fold
CN1CCN(c2cc(-c3ccncc3)c(-c3ccc4ccccc4c3)nn2)CC1,"Lysophosphatidic acid receptor 2 (LPAR2, Homo sapiens, UniProt Q9HBW0)","agonist, FLIPR",,12.5 µM,,activation,-1.4%
N=C(N)c1ncn([C@@H]2O[C@H](CO)[C@@H](O)[C@H]2O)n1,"uncharacterized protein (Trichomonas vaginalis, UniProt A2EYV3)",inhibitor,,,,ligand efficiency,0.59
O=S(=O)(O)C1CCNCC1,"Sodium- and chloride-dependent taurine transporter (SLC6A6, Homo sapiens, UniProt P31641, Y138A)","binding, microscale thermophoresis",,"3.91 µM, room temperature, with: 50 nM labelled protein",higher = more binding,normalised MST signal,0.0324
CC[C@H](C)[C@H](NC(=O)[C@H](Cc1ccccc1)NC(=O)[C@H](CCC(=O)O)NC(=O)[C@H](CCCNC(=N)N)NC(=O)[C@H](C)NC(=O)[C@H](C)NC(=O)[C@H](CCC(N)=O)NC(=O)[C@H](CCCCNc1c(NCCCCCN(O)C(=O)CCC(=O)NCCCCCN(O)C(=O)CCC(=O)NCCCCCN(O)C(C)=O)c(=O)c1=O)NC(=O)[C@H](CCC(=O)O)NC(=O)[C@H](CC(C)C)NC(=O)[C@H](Cc1ccc(O)cc1)NC(=O)[C@H](CO)NC(=O)[C@H](CO)NC(=O)[C@H](CCCCNc1c(NCCCCCN(O)C(=O)CCC(=O)NCCCCCN(O)C(=O)CCC(=O)NCCCCCN(O)C(C)=O)c(=O)c1=O)NC(=O)[C@H](CC(=O)O)NC(=O)[C@H](CO)NC(=O)[C@@H](NC(=O)[C@H](Cc1ccccc1)NC(=O)[C@@H](NC(=O)CNC(=O)[C@H](CCC(=O)O)NC(=O)[C@H](C)NC(=O)CCc1cnc[nH]1)[C@@H](C)O)[C@@H](C)O)C(=O)N[C@@H](C)C(=O)N[C@@H](Cc1c[nH]c2ccccc12)C(=O)N[C@@H](CC(C)C)C(=O)N[C@H](C(=O)N[C@@H](CCCNC(=N)N)C(=O)NCC(=O)N[C@@H](CCCNC(=N)N)C(=O)N[C@@H](CCCCNC(=O)COCCOCCNC(=O)COCCOCCNC(=O)CC[C@H](NC(=O)CCCCCCCCCCCCCCCCC(=O)O)C(=O)O)C(=O)O)C(C)C,GLP1R,"agonist, CRE luciferase reporter",BHK cells,"Zr-loaded DFO conjugate, with: 0% HSA",relative to: parent peptide,fold potency loss,57.9
COc1cccc(-n2nc3c4cc(Cl)ccc4[nH]cc-3c2=O)c1,"Gamma-aminobutyric acid receptor subunit alpha-6/beta-3, with delta subunit (Gabra6/Gabrb3, Rattus norvegicus, UniProt P30191+P63079)","ion current, modulator, two-electrode voltage clamp",,"10 nM, α6β3δ receptor, with: GABA EC3-10",,efficacy,101 ± 1.4%
OO,alternative ancestral dye-decolorizing peroxidase,"peroxidase activity, substrate, steady-state kinetics",,"25 °C, pH 3 ABTS, 4 others",,kcat,3.6 s⁻¹
CCCC(CCC)c1nc2c(Nc3ccc(C#CCCCCCCCCN)cc3)nc3ccccc3c2[nH]1,"5-hydroxytryptamine receptor 3A (HTR3A, Homo sapiens, UniProt P46098)",PDSP screening,,,,off-target affinity,inactive
CO[C@@H]1O[C@H](CO)[C@@H](O)[C@H](O)[C@H]1O,"uncharacterized protein (Pelagibacter ubique, UniProt Q4FMK2)",differential scanning fluorimetry,Candidatus Pelagibacter ubique,concentration not given,higher = stronger binding,ΔTm,3.44 °C
Cc1cc(Nc2cc(N3CCN(C)CC3)nc(Sc3ccc(NC(=O)C4CC4)cc3)n2)[nH]n1,"Aurora kinase C (AURKC, Homo sapiens, UniProt Q9UQB9)",kinase activity,,0.03 µM,relative to: control,remaining activity,15%

# Repeated from above:
SMILES,target or system,test,test system,conditions,scale,measurement,result
C=CCNC1=C2C[C@@H](C)C[C@H](OC)[C@H](O)[C@@H](C)/C=C(\C)[C@H](OC(N)=O)[C@@H](OC)/C=C\C=C(/C)C(=O)NC(=CC1=O)C2=O,NanoBiT HiBiT/LgBiT luciferase,"inhibitor, HiBiT luminescence counterscreen",conditioned medium only,"1.66 µM, 24 h",relative to: vehicle,luminescence signal reduction,-0.3%
CCCCCCCCCCCC(=O)O,"Peroxisome proliferator-activated receptor alpha (Ppara, Mus musculus, UniProt P23204, F272I)",intrinsic fluorescence quenching,,concentration not given,,binding,no binding
